{"data": "Measured values of several laboratories", "note": "Parts stem from different laboratories: compare values within a part only. Substitutions count along the parent as printed.", "chain of UniProt P0C264 (whole entry, looked up)": "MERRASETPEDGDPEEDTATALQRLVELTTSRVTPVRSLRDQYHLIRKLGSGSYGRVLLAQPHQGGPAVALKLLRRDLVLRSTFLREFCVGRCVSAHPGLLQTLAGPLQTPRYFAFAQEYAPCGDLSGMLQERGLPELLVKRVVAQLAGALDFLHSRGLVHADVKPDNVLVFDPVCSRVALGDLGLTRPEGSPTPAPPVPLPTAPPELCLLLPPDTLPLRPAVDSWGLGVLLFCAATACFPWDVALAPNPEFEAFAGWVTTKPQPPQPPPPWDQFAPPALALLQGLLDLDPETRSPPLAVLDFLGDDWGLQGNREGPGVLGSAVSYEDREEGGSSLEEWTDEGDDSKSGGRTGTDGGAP", "chain of UniProt P10721 (whole entry, unmodified, looked up)": "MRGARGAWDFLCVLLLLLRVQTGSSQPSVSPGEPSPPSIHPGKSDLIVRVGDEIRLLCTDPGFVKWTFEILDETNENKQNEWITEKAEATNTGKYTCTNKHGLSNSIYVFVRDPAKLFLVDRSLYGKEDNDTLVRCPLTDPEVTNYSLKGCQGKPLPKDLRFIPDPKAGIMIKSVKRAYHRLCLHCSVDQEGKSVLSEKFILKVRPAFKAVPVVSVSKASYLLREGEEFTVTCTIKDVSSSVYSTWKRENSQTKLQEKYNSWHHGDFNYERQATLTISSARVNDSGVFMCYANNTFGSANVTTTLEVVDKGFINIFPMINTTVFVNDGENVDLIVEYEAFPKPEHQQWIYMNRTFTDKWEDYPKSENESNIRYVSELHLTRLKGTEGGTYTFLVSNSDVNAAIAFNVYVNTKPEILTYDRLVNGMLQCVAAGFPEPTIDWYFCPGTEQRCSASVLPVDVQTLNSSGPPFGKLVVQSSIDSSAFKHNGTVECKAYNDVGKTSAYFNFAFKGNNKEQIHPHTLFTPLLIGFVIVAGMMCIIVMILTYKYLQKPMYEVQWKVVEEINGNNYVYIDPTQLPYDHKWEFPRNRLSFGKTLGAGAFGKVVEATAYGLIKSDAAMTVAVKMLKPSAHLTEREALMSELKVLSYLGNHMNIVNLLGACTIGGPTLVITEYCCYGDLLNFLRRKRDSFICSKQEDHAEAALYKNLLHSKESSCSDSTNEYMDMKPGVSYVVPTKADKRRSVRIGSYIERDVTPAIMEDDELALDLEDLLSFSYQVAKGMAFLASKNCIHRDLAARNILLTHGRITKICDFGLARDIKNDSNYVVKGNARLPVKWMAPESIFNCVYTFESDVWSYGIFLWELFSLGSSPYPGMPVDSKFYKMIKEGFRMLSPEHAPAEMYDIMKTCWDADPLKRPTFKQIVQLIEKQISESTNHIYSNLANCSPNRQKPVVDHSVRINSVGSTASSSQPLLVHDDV", "chain of UniProt Q9UBE8 (whole entry, looked up)": "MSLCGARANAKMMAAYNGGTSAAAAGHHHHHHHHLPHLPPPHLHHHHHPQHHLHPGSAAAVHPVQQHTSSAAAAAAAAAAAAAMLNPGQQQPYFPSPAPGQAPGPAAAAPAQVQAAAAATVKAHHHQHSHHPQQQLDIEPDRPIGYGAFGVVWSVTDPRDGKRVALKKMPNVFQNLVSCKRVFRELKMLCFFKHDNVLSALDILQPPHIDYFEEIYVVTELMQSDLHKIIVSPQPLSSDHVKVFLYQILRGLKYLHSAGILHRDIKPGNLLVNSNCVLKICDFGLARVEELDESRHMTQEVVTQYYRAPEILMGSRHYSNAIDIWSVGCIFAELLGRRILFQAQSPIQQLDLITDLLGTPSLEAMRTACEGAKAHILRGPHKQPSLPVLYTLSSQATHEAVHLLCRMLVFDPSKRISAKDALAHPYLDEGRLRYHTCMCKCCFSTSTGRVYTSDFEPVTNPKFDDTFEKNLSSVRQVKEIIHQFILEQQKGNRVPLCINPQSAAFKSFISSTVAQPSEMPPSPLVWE", "chain of UniProt P51813 (whole entry, looked up)": "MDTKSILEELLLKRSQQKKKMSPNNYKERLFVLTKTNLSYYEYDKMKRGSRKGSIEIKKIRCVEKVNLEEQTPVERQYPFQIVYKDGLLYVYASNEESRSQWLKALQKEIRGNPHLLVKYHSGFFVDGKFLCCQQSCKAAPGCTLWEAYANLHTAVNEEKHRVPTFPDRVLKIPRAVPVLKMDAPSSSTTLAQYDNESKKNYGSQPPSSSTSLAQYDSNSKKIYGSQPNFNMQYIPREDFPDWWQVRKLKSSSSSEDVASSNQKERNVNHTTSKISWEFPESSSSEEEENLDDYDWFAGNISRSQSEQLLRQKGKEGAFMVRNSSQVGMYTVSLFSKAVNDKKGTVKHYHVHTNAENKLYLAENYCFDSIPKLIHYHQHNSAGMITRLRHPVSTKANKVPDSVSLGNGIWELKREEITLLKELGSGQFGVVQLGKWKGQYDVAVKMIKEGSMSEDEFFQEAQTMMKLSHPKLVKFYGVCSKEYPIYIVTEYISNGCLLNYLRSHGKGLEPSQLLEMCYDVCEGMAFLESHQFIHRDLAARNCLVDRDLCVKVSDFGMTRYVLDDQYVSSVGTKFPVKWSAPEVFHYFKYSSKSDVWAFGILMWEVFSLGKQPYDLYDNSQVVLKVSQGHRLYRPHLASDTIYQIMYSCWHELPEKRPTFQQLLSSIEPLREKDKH"}
{"data": "Block 1", "target": "Serine/threonine-protein kinase WNK2 (WNK2, Homo sapiens, UniProt Q9Y3S1)", "observed": "enzyme activity", "mode": "inhibitor", "tested at": "0.5 µM", "baseline": "control", "chain of UniProt Q9Y3S1 (whole entry, looked up)": "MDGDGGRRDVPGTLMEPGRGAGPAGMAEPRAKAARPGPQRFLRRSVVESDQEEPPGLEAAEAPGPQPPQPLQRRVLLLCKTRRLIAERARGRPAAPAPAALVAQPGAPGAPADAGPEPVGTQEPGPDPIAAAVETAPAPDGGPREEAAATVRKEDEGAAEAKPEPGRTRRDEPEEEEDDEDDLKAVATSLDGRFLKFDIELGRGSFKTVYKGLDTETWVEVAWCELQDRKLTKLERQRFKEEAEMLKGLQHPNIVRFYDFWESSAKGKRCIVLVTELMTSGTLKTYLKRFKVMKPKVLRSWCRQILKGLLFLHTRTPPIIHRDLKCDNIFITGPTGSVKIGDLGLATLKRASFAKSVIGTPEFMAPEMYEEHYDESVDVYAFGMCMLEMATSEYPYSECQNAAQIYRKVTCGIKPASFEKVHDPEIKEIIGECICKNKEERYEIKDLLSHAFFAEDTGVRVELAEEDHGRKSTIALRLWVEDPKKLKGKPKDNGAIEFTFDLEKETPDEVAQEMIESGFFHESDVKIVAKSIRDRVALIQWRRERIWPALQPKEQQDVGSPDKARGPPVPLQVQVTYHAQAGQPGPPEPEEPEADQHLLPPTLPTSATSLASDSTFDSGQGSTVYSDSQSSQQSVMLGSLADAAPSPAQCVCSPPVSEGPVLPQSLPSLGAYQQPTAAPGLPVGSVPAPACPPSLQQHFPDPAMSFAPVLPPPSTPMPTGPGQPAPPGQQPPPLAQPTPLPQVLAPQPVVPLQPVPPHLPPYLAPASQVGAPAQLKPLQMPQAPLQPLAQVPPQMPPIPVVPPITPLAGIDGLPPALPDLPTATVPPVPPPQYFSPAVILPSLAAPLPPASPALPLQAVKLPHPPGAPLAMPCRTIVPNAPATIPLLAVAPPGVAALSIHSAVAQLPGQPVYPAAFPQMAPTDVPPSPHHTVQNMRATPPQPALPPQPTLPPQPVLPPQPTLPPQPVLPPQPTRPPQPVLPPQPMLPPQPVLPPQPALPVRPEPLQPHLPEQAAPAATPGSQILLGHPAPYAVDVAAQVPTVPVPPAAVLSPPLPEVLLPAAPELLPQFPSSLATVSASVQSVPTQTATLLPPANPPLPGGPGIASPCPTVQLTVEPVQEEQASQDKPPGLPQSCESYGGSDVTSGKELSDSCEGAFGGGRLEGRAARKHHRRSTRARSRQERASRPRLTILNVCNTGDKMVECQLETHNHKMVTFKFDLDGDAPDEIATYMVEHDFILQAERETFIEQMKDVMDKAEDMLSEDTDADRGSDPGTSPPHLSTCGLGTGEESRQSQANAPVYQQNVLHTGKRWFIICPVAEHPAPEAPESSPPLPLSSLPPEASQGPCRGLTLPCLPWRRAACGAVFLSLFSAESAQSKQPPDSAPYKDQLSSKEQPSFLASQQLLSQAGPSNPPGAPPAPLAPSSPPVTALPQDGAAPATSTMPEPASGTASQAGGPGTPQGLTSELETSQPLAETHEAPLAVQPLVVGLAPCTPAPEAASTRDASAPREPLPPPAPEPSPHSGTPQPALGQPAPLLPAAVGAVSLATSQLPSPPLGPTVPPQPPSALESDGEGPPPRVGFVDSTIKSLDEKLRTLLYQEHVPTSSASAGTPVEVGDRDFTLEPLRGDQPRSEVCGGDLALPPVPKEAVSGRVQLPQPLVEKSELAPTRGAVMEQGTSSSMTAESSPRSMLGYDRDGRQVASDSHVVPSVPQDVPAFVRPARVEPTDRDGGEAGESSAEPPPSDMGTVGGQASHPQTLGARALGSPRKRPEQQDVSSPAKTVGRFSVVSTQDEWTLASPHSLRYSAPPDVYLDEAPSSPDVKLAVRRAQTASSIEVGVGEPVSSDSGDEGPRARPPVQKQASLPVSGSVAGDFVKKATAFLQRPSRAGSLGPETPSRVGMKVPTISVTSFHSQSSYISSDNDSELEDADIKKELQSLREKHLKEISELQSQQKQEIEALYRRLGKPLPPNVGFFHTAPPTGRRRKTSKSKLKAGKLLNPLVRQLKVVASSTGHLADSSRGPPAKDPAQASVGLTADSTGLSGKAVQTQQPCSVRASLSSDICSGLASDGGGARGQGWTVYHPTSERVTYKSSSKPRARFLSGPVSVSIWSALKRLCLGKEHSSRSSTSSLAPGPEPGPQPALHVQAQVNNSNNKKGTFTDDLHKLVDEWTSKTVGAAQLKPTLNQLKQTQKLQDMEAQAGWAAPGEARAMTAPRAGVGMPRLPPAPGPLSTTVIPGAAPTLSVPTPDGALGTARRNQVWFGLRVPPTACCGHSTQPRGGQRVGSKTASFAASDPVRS"}
{"SMILES": "CCOc1nc(NC(=O)Cc2cc(OC)ccc2OC)cc(N)c1C#N", "remaining activity": "104%"}
{"SMILES": "COc1cc2c(cc1OC)-c1[nH]nc(Nc3cccc(F)c3)c1C2", "remaining activity": "104%"}
{"SMILES": "COc1cc2ncnc(Nc3ccc(O)c(Br)c3)c2cc1OC", "remaining activity": "102%"}
{"SMILES": "O=C1c2ccccc2-c2n[nH]c3cccc1c23", "remaining activity": "102%"}
{"SMILES": "Cn1nc2c3c(cccc31)C(=O)c1ccccc1-2", "remaining activity": "104%"}
{"data": "Block 2", "cell line": "mouse MPNST tumor cells", "technique": "high-content immunofluorescence imaging", "refers to": "nuclear SOX9", "tested at": "10 µM", "time": "12 h", "notes": "mean of 2 replicates", "baseline": "DMSO control", "direction": "higher = more nuclear SOX9"}
{"Structure (SMILES)": "C[C@H]1C[C@@H]2[C@H]([C@@H](O)C[C@@]3(C)[C@H]2CC[C@]3(O)C(=O)CO)[C@@]2(C)C=CC(=O)C=C12", "nuclear SOX9 intensity": "74.5 % of DMSO"}
{"Structure (SMILES)": "CN=c1nc(-c2ccccc2)n(-c2ccccc2)s1", "nuclear SOX9 intensity": "100 % of DMSO"}
{"Structure (SMILES)": "CC(C)N(CCC(=O)c1ccc2ccccc2c1)Cc1ccccc1", "nuclear SOX9 intensity": "110 % of DMSO"}
{"data": "Block 3", "cell line": "Huh-7", "tested at": "10 µM", "time": "24 h"}
{"Compound": "NC(N)=Nc1nc(CSCCC(N)=NS(N)(=O)=O)cs1", "viability [%]": 92.8}
{"Compound": "CCOC(=O)c1ncn2c1CN(C)C(=O)c1cc(F)ccc1-2", "viability [%]": 97.6}
{"Compound": "O=C1CC2(CCCC2)CC(=O)N1CCCCN1CCN(c2ncccn2)CC1", "viability [%]": 98.9}
{"Compound": "Cc1onc(-c2ccccc2Cl)c1C(=O)N[C@@H]1C(=O)N2[C@@H]1SC(C)(C)[C@@H]2C(=O)O", "viability [%]": 105}
{"Compound": "CC(=O)O[C@]1(C(C)=O)CC[C@H]2[C@@H]3C=C(C)C4=CC(=O)CC[C@]4(C)[C@H]3CC[C@@]21C", "viability [%]": 89.4}
{"Compound": "CN1CCN(CC/C=C2/c3ccccc3Sc3ccc(S(=O)(=O)N(C)C)cc32)CC1", "viability [%]": 96.6}
{"data": "Block 4", "Compound": "COc1cccc(CNC(=O)c2nc3scc(COCc4ccc(C(=O)O)cc4)c3c(=O)[nH]2)c1", "observed": "cell-free assay", "technique": "competition with immobilised ligand", "tested at": "1 µM"}
{"target": "Cyclin-dependent kinase-like 1 (CDKL1, Homo sapiens, UniProt Q00532)", "remaining binding [%]": 100}
{"target": "Epidermal growth factor receptor (EGFR, Homo sapiens, UniProt P00533, G719S)", "remaining binding [%]": 100}
{"target": "Cytoplasmic tyrosine-protein kinase BMX (BMX, Homo sapiens, UniProt P51813)", "remaining binding [%]": 100}
{"target": "Tyrosine-protein kinase ABL1, phosphorylated (ABL1, Homo sapiens, UniProt P00519, Q252H)", "remaining binding [%]": 91.4}
{"target": "Dual specificity protein kinase CLK1 (CLK1, Homo sapiens, UniProt P49759)", "remaining binding [%]": 95.6}
{"target": "Ephrin type-B receptor 1 (EPHB1, Homo sapiens, UniProt P54762)", "remaining binding [%]": 90.9}
{"target": "RAC-alpha serine/threonine-protein kinase (AKT1, Homo sapiens, UniProt P31749)", "remaining binding [%]": 99.9}
{"target": "Uncharacterized serine/threonine-protein kinase SBK3 (SBK3, Homo sapiens, UniProt P0C264)", "remaining binding [%]": 100}
{"target": "Serine/threonine-protein kinase BRSK1 (BRSK1, Homo sapiens, UniProt Q8TDC3)", "remaining binding [%]": 100}
{"target": "Receptor tyrosine-protein kinase erbB-3 (ERBB3, Homo sapiens, UniProt P21860)", "remaining binding [%]": 89.4}
{"target": "Serine/threonine-protein kinase Nek11 (NEK11, Homo sapiens, UniProt Q8NG66)", "remaining binding [%]": 65.6}
{"target": "Serine/threonine-protein kinase NLK (NLK, Homo sapiens, UniProt Q9UBE8)", "remaining binding [%]": 80.3}
{"target": "Mast/stem cell growth factor receptor Kit (KIT, Homo sapiens, UniProt P10721, L576P)", "remaining binding [%]": 100}
{"target": "Tyrosine-protein kinase ABL1, phosphorylated (ABL1, Homo sapiens, UniProt P00519, M351T)", "remaining binding [%]": 84.4}
{"target": "Cyclin-dependent kinase-like 5 (CDKL5, Homo sapiens, UniProt O76039)", "remaining binding [%]": 89.5}
{"target": "Phosphatidylinositol 4-phosphate 3-kinase C2 domain-containing subunit beta (PIK3C2B, Homo sapiens, UniProt O00750)", "remaining binding [%]": 80.6}
{"data": "Block 5", "target": "ABI1, truncated, D143A, DHFR fusion (Arabidopsis thaliana, UniProt P49597)", "technique": "DHFR PCA, dose-response", "sample": "yeast", "notes": "Hill fit, mean, not affinity", "together with": "(+)-ABA, dose series", "direction": "lower = more sensitive", "starting sequence": "PYL1, truncated, DHFR fusion (Arabidopsis thaliana, UniProt Q8VZS8); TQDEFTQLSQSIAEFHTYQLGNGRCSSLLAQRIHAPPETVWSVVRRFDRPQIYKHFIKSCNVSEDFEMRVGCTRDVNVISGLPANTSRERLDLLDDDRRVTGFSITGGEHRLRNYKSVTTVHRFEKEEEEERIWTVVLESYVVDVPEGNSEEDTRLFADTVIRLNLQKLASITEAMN"}
{"Variant": "R32L", "ABA EC50": "2.93 µM"}
{"Variant": "S80Q", "ABA EC50": "159 µM"}
{"Variant": "S9P", "ABA EC50": "41.9 µM"}
{"Variant": "V70D", "ABA EC50": "64.9 µM"}
{"Variant": "T6C", "ABA EC50": "2.88 µM"}
{"Variant": "R88D", "ABA EC50": "77.3 µM"}
{"Variant": "E139D", "ABA EC50": "461 µM"}
{"Variant": "E64D", "ABA EC50": "2.52 µM"}
{"note": "For quick reference, copied from above (block 4):"}
{"target": "Cyclin-dependent kinase-like 1 (CDKL1, Homo sapiens, UniProt Q00532)", "remaining binding [%]": 100}
{"target": "Epidermal growth factor receptor (EGFR, Homo sapiens, UniProt P00533, G719S)", "remaining binding [%]": 100}
